Measured values of several laboratories.
Compare with care: the assays were run in different laboratories. ± marks the error that the study gave.

SMILES | test | test system | conditions | how to read | quantity | value
CO[C@H]1C[C@@H]2CC[C@@H](C)[C@@](O)(O2)C(=O)C(=O)N2CCCC[C@H]2C(=O)O[C@H]([C@H](C)C[C@@H]2CC[C@@H](OC(=O)NCCOCCOCCOCCOCCOCCOCCOCCOCCC(=O)N3CCc4cc(Cn5nc(-c6ccc7oc(N)nc7c6)c6c(N)ncnc65)ccc4C3)[C@H](OC)C2)C[C@@H](O)[C@H](C)/C=C(\C)[C@@H](O)[C@@H](OC)C(=O)[C@H](C)C[C@H](C)/C=C/C=C/C=C/1C | – | patients with advanced solid tumours | intravenous, 6 mg weekly, grade 3 or higher | – | vomiting incidence | 8.3%
CCN1[C@@H](C(=O)NC23CCC(C(=O)O)(CC2)CC3)[C@H](c2cccc(Cl)c2F)[C@]2(C(=O)Nc3cc(Cl)ccc32)C12CCCCC2 | – | patients with advanced solid tumours | oral, 200 mg | – | Lymphocytopenia incidence | 50%
CCCCCCCC(=O)N[C@@H](CCCCN)C(=O)N[C@@H](CCCCN)C(=O)N[C@@H](C)C(=O)N[C@@H](CC(C)C)C(=O)N[C@@H](CCCCN)C(=O)N[C@@H](CC(C)C)C(=O)N[C@@H](C)C(=O)N[C@@H](CCCCN)C(=O)N[C@@H](CCCCN)C(=O)N1CCC[C@H]1C(=O)N[C@@H](CC(C)C)C(=O)N[C@@H](CCCCN)C(=O)N[C@@H](CC(C)C)C(=O)N[C@@H](CC(C)C)C(=O)N[C@@H](CCCCN)C(N)=O | – | female ICR CD-1 mice, whole blood | intravenous bolus, 10 mg/kg | – | AUC(0-inf) | 976 ± 416 ng·h/mL
COc1ccc2nc3cc(Cl)ccc3c(Nc3cc(CN4CCCC4)c(O)c(CN4CCCC4)c3)c2n1 | – | mouse, blood | intraperitoneal, 28 mg/kg | – | basophil count | 0.14 10⁹/L
CCN1CCN(Cc2ccc(Nc3ncc(F)c(-c4cc(F)c5nc6n(c5c4)[C@H](C)CCC6)n3)nc2)CC1 | – | advanced solid tumour patients | dose not given, Phase Ia monotherapy | – | Dizziness incidence, grade ≥3 | 0%
NCCCC[C@@H]1NC(=O)[C@@H](Cc2c[nH]c3ccccc23)NC(=O)[C@H](c2ccccc2)NC(=O)[C@@H]2C[C@@H](OC(=O)NCCN)CN2C(=O)[C@H](Cc2ccccc2)NC(=O)[C@H](Cc2ccc(OCc3ccccc3)cc2)NC1=O | – | healthy volunteers, male | 600 µg twice daily, 2.0 h, post hoc | – | placebo-corrected QTcF change | 12.4 ms
CC(C)CC(=O)OC[C@H]1O[C@@](C#N)(c2ccc3c(N)ncnn23)[C@H](O)[C@@H]1O | – | mouse whole blood | 5 µM, 15 min | – | remaining compound | 0%
COc1cc2c(Oc3ccc4[nH]c(C)cc4c3F)ccnc2cc1OCC1(N)CC1 | – | paediatric recurrent refractory sarcoma | 8 mg | – | grade 1 or 2 Proteinuria | 25%
COc1ncccc1-c1cnn2ccc(N3CCN(C(=O)OC(C)C)CC3)nc12 | – | mouse nerve ligation model, plasma | oral, 3 mg/kg, 120 min after last dose, repeat dosing day 2 | – | drug concentration | 2000 nM
Cc1ccc(F)c2cc(C(=O)N[C@@H]3CCC[C@H](N4CC[C@H](N(C)S(C)(=O)=O)C4)C3)[nH]c12 | – | CD1 mouse, plasma | oral, 30 mg/kg, 0.5 h | – | plasma concentration | 590 ng/mL
CNC(=O)N(N(CCCl)S(C)(=O)=O)S(C)(=O)=O | – | 1 mM potassium phosphate | 50 °C | baseline: pH 8.0 over pH 7.0 | half-life ratio | ~8 fold
COc1ccc2c(c1)CN(C(=O)CCN1CCC(Cc3ccccc3)CC1)CC[S@@+]2[O-] | ventricular rhythm | dogs, chronic AV block | intravenous, 3 mg/kg | – | QT interval | no effect
COc1ccc(-c2c(-c3ccc(C#N)c(F)c3)nc(N3CCC(N)CC3)n(C)c2=O)cc1F | measured: Fatigue/asthenia | human patients | oral, dose not given, any grade, dose escalation, NG | – | treatment-related adverse event incidence | 16%
Nc1nc2cc(-c3ccc4ncc(C(=O)N5CCOCC5)n4c3)ccc2o1 | – | human, advanced solid tumours | 100–300 mg once daily, drug-related | – | serious adverse events | 8%

A few entries again:
SMILES | test | test system | conditions | how to read | quantity | value
CCN1[C@@H](C(=O)NC23CCC(C(=O)O)(CC2)CC3)[C@H](c2cccc(Cl)c2F)[C@]2(C(=O)Nc3cc(Cl)ccc32)C12CCCCC2 | – | patients with advanced solid tumours | oral, 200 mg | – | Lymphocytopenia incidence | 50%
CC(C)CC(=O)OC[C@H]1O[C@@](C#N)(c2ccc3c(N)ncnn23)[C@H](O)[C@@H]1O | – | mouse whole blood | 5 µM, 15 min | – | remaining compound | 0%
